Assay results gathered from unrelated publications.
Cell line: HCT-116

Structure (SMILES)	observed	method	tested at	time	setting	quantity	result
COc1cc(CNC(=O)CCCC/C=C/C(C)C)ccc1OCc1cn(-c2ccc(F)cc2)nn1	–	SRB	10 µM	48 h	–	growth percent	65.6%
N#Cc1ccc(-c2csc(NN=Cc3c(F)cc(F)cc3F)n2)cc1	colony formation	–	10 µM	24 h	–	inhibition	100%
Cl.Cl.O=C(Nc1ccc(O[C@@H]2CCNC2)c(-c2cccc(-c3nn[nH]n3)c2)c1)c1ccc(O[C@H]2CCNC2)c(-c2ccc(F)c(F)c2)c1	–	co-immunoprecipitation	–	–	β-catenin/BCL9-disrupting concentrations	β-catenin/E-cadherin interaction	no effect
NCCC(=O)Nc1ccccc1/N=c1\cc(-c2ccc3nc(N)oc3c2)oc2ccc(F)cc12	cell growth or viability	CCK-8	1 µM	–	–	inhibition	> 70%
Cc1[nH]c(=O)nc2c1c(=O)oc1ccc3ccccc3c12	cell growth or viability	MTT	10 µM	–	–	inhibition	69.8%
CCc1ccc(-n2cc(COc3ccc(CNC(=O)CCCC/C=C/C(C)C)cc3OC)nn2)cc1	–	SRB	10 µM	48 h	–	growth percent	90.7%
COc1cc(/C=N/n2c(C)nc3ccc(Br)cc3c2=O)ccc1OCc1ccc(Cl)cc1	cell growth or viability	LDH	200 µg/mL	24 h	–	viability	93.5%
N#Cc1ccc(-c2csc(NN=Cc3cccc(F)c3)n2)cc1	colony formation	–	10 µM	24 h	–	inhibition	100%
COc1cc(CNC(=O)CCCC/C=C/C(C)C)ccc1OCc1cn(-c2ccc(C)cc2)nn1	–	SRB	10 µM	48 h	–	growth percent	92.4%
CC1=C(C(=O)Nc2ccccc2)C(c2ccc3ccc4cccc5ccc2c3c45)NC(=S)N1 (centres unmarked)	cell growth or viability	MTT	10 µM	–	–	inhibition	79.6%
Cc1ccc(-n2c(SCC(=O)NNC(=O)Nc3ccccc3)nc3ccccc3c2=O)cc1	–	annexin V-FITC/PI flow cytometry	concentration not given	24 h	–	late apoptotic cells	16.5%
N#Cc1ccc(-c2csc(NN=Cc3ccccc3F)n2)cc1	colony formation	–	10 µM	24 h	–	inhibition	100%
C#C[C@@]1(O)[C@@H](CO)O[C@@H](n2cc(Br)c3c(N)ncnc32)[C@@H]1O	cell growth or viability	SRB	–	48 h	–	GI50	0.028 µM
COc1cc(CNC(=O)CCCC/C=C/C(C)C)ccc1OCc1cn(-c2ccccc2Cl)nn1	–	SRB	10 µM	48 h	–	growth percent	100%
N#Cc1ccc(-c2csc(NN=Cc3sccc3Br)n2)cc1	colony formation	clonogenic	5 µM	24 h	–	inhibition	5 to 30%
Cc1nc2ccc(Cl)cc2c(=O)n1NC1=NC(=O)CS1	cell growth or viability	LDH	200 µg/mL	24 h	–	viability	28%
Cc1[nH]c(=S)nc2c1c(=O)oc1ccc3ccccc3c12	cell growth or viability	MTT	10 µM	–	–	inhibition	65.7%
COc1cc(CNC(=O)CCCC/C=C/C(C)C)ccc1OCc1cn(-c2ccccc2F)nn1	–	SRB	10 µM	48 h	–	growth percent	97.8%
CC1=C(C(=O)Nc2ccccn2)C(c2ccc3ccc4cccc5ccc2c3c45)NC(=S)N1 (centres unmarked)	cell growth or viability	MTT	10 µM	–	–	inhibition	86.3%
CO[C@H]1C[C@@H]2CC[C@@H](C)[C@@](O)(O2)C(=O)C(=O)N2CCCC[C@H]2C(=O)O[C@H]([C@H](C)C[C@@H]2CC[C@@H](O)[C@H](OC)C2)CC(=O)[C@H](C)/C=C(\C)[C@@H](O)[C@@H](OC)C(=O)[C@H](C)C[C@H](C)/C=C/C=C/C=C/1C	cell growth or viability	SRB	–	72 h	–	GI50	2.3 µM
C#C[C@@]1(O)[C@@H](CO)O[C@@H](n2cc(I)c3c(N)ncnc32)[C@@H]1O	cell growth or viability	SRB	–	48 h	–	GI50	0.045 µM
N#Cc1ccc(-c2csc(NN=Cc3c(Cl)cccc3Cl)n2)cc1	colony formation	–	10 µM	24 h	–	inhibition	100%
COc1cc(CNC(=O)C[C@H](C)CCC=C(C)C)ccc1OCc1cn(-c2ccc(Cl)cc2)nn1	–	SRB	10 µM	48 h	–	growth percent	38.2%
N#Cc1ccc(-c2csc(NN=Cc3c(F)c(F)c(F)c(F)c3F)n2)cc1	colony formation	–	10 µM	24 h	–	inhibition	100%
Cc1ccc(C(C)C)cc1.Cc1ccc(C(C)C)cc1.[Cl][Ru][Cl].[Cl][Ru][Cl]	cell growth or viability	trypan blue	–	48 h	–	IC90	1330 µM
NS(=O)(=O)c1ccc(Nc2nc(OCC3CCCCC3)c3nc[nH]c3n2)cc1	cell growth or viability	SRB	–	72 h	–	GI50	5.7 µM
COc1ccc(C=C(C#N)C(=O)Nc2nnc(NC(=O)c3ccccc3)s2)cc1	cell growth or viability	MTT	–	48 h	–	IC50	< 10 µM
CCC(C)Oc1nc(N)nc(N)c1C#N (centres unmarked)	cell growth or viability	SRB	–	72 h	–	GI50	73 µM
CC12NC(=S)NC(c3c(ccc4ccccc34)O1)C2C(=O)Nc1cccnc1 (centres unmarked)	cell growth or viability	MTT	10 µM	–	–	inhibition	45.6%

Some of these lines once more:
Structure (SMILES)	observed	method	tested at	time	setting	quantity	result
COc1cc(CNC(=O)CCCC/C=C/C(C)C)ccc1OCc1cn(-c2ccc(C)cc2)nn1	–	SRB	10 µM	48 h	–	growth percent	92.4%
N#Cc1ccc(-c2csc(NN=Cc3c(F)c(F)c(F)c(F)c3F)n2)cc1	colony formation	–	10 µM	24 h	–	inhibition	100%
Cc1nc2ccc(Cl)cc2c(=O)n1NC1=NC(=O)CS1	cell growth or viability	LDH	200 µg/mL	24 h	–	viability	28%
